Measured values pooled from the literature.
Lines come from different studies, so protocols differ.
KRAS C118A/G12C: GTPase KRas (KRAS, Homo sapiens, UniProt P01116, C118A/G12C)
KRAS G12D GDP-bound: GTPase KRas, GDP-bound (KRAS, Homo sapiens, UniProt P01116, G12D)
KRAS G13D GDP-bound: GTPase KRas, GDP-bound (KRAS, Homo sapiens, UniProt P01116, G13D)

C=CC(=O)N1CC2(CCN(c3nc(N[C@H](CC(=O)NC)CC(C)C)nc(-c4cc(F)ccc4OC)n3)CC2(F)F)C1 — enrichment factor (KRAS C118A/G12C; covalent, DNA-encoded library screen): 66
CC[C@H](C)[C@@H]1NC(=O)[C@H](CCc2ccccc2)NC(=O)[C@H](CC(C)C)NC(=O)[C@@H]2CCCN2C(=O)[C@@H](NC(=O)[C@H](CCCNC(=N)N)NC(=O)[C@H](CCCNC(=N)N)NC(C)=O)CSSC[C@@H](C(=O)N[C@@H](CCCNC(=N)N)C(=O)N[C@@H](CCCNC(=N)N)C(N)=O)NC(=O)[C@H](C(C)C)NC(=O)[C@@H]2CCCN2C(=O)[C@H](CC(=O)O)NC(=O)[C@H](Cc2ccc(O)cc2)NC(=O)[C@H](CO)NC1=O — lowest bound protein concentration (KRAS G12D GDP-bound; affinity selection mass spectrometry; mixture library 1, with: protein titration up to 5 µM; lower is stronger binding): 0.31 µM
C=C1CN2CCC[C@@]2(COc2nc3c4c(c(Cl)c(-c5nc(N)cc(C)c5C(F)(F)F)cc4n2)OC[C@@H]2CN(C(=O)/C=C/c4nccc5c4CNCC5)CCN32)C1 — potency improvement (KRAS G13D GDP-bound; nucleotide exchange, inhibitor, HTRF; baseline: 27): ~14 fold
CCCC[C@@H]1NC(=O)[C@H]([C@@H](C)CC)NC(=O)[C@H](Cc2ccc(O)cc2)NC(=O)[C@H](CC(C)C)NC(=O)[C@@H]2CCCN2C(=O)[C@@H](NC(=O)[C@H](CCCNC(=N)N)NC(=O)[C@H](CCCNC(=N)N)NC(C)=O)CSSC[C@@H](C(=O)N[C@@H](CCCNC(=N)N)C(=O)N[C@@H](CCCNC(=N)N)C(N)=O)NC(=O)[C@H](C(C)C)NC(=O)[C@@H]2CCCN2C(=O)[C@H](CC(=O)O)NC(=O)[C@H](CC2CCCCC2)NC1=O — lowest bound protein concentration (KRAS G12D GDP-bound; affinity selection mass spectrometry; mixture library 2, with: protein titration up to 5 µM; lower is stronger binding): 1.25 to 2.5 µM
C=CC(=O)N1CCN2C(=O)c3cc(F)c(-c4ccc(F)c5sc(N)c(C#N)c45)c(Cl)c3OCC[C@H]2C1 — kinact (GTPase KRas, GDP-bound (KRAS, Homo sapiens, UniProt P01116, G12C); covalent inhibitor, SPR; GDP-bound, biotinylated): 0.00903 s⁻¹
CC[C@H](C)[C@@H]1NC(=O)[C@H](Cc2ccc(-c3ccccc3)cc2)NC(=O)[C@H](CC(C)C)NC(=O)[C@@H]2CCCN2C(=O)[C@@H](NC(=O)[C@H](CCCNC(=N)N)NC(=O)[C@H](CCCNC(=N)N)NC(C)=O)CSSC[C@@H](C(=O)N[C@@H](CCCNC(=N)N)C(=O)N[C@@H](CCCNC(=N)N)C(N)=O)NC(=O)[C@H](C(C)C)NC(=O)[C@@H]2CCCN2C(=O)[C@H](CC(=O)O)NC(=O)[C@H](Cc2ccc(O)cc2)NC(=O)[C@H](CO)NC1=O — lowest bound protein concentration (KRAS G12D GDP-bound; affinity selection mass spectrometry; mixture library 1, with: protein titration up to 5 µM; lower is stronger binding): 0.08 µM
C=CC(=O)N1CC2(CCN(c3nc4c(c(-c5c(C)ccc6[nH]ncc56)n3)CCCC4)C2)C1 — ligand efficiency (KRAS C118A/G12C; SOS1-catalysed nucleotide exchange, AlphaScreen): 0.18
C#Cc1c(F)ccc2cc(O)cc(-c3ncc4c(N5CC6CCC(C5)N6)nc(OC[C@@]56CCCN5C[C@H](F)C6)nc4c3F)c12 — off-rate increase (GTPase KRas, GppNHp-bound (KRAS, Homo sapiens, UniProt P01116); SPR; wild type; baseline: GppNHp-bound over GDP-bound): 14 fold
C=CC(=O)N1CC2(CCN(c3nc(N[C@H](CC(=O)NC)CC(C)C)nc(-c4cccc(OC)c4F)n3)C2)C1 — enrichment factor (KRAS C118A/G12C; covalent, DNA-encoded library screen): 116
CC[C@H](C)[C@@H]1NC(=O)[C@H](Cc2ccc(-c3ccccc3)cc2)NC(=O)[C@H](CC(C)C)NC(=O)[C@@H]2CCCN2C(=O)[C@@H](NC(=O)[C@H](CCCNC(=N)N)NC(=O)[C@H](CCCNC(=N)N)NC(C)=O)CSSC[C@@H](C(=O)N[C@@H](CCCNC(=N)N)C(=O)N[C@@H](CCCNC(=N)N)C(N)=O)NC(=O)[C@H](Cc2ccc(Cl)cc2)NC(=O)[C@@H]2C[C@@H](OCC(=O)O)CN2C(=O)[C@H](CC(=O)O)NC(=O)[C@H](Cc2ccc(O)cc2)NC(=O)[C@H](CO)NC1=O — lowest bound protein concentration (KRAS G12D GDP-bound; affinity selection mass spectrometry; mixture library 4, with: protein titration up to 2.5 µM; lower is stronger binding): 0.16 µM
C=C1CN2CCC[C@@]2(COc2nc(N3CCN(C(=O)/C=C/c4cccc5c4CNCC5)C[C@@H]3C)c3cc(Cl)c(-c4nc(N)cc(C)c4C(F)(F)F)c(F)c3n2)C1 — potency increase (KRAS G13D GDP-bound; nucleotide exchange, inhibitor, HTRF; baseline: 32): ~3 fold
CCC[C@@H]1NC(=O)[C@H](Cc2ccc(O)cc2)NC(=O)[C@H](CC(C)C)NC(=O)[C@@H]2CCCN2C(=O)[C@@H](NC(=O)[C@H](CCCNC(=N)N)NC(=O)[C@H](CCCNC(=N)N)NC(C)=O)CSSC[C@@H](C(=O)N[C@@H](CCCNC(=N)N)C(=O)N[C@@H](CCCNC(=N)N)C(N)=O)NC(=O)[C@H](C(C)C)NC(=O)[C@@H]2CCCN2C(=O)[C@H](CC(=O)O)NC(=O)[C@H](Cc2ccc(O)cc2)NC(=O)[C@H](CO)NC1=O — lowest bound protein concentration (KRAS G12D GDP-bound; affinity selection mass spectrometry; mixture library 1, with: protein titration up to 5 µM; lower is stronger binding): 1.25 µM
C=CC(=O)N1CC2(CCN(c3nc(N[C@H](CC(=O)NC)CC(C)C)c4ccccc4n3)C2)C1 — ligand efficiency (KRAS C118A/G12C; SOS1-catalysed nucleotide exchange, AlphaScreen): 0.21
Cc1nn2c(N3CCN(CCO)CC3)cc(-c3ccccc3)nc2c1-c1ccccc1 — binding onset concentration (GTPase KRas, GDP-bound (KRAS, Homo sapiens, UniProt P01116); binding, to KRAS, GDP-bound, microscale thermophoresis): > 20 µM
C=CC(=O)N1CC2(CCN(c3nc4c(c(N[C@H](CC(=O)NC)CC(C)C)n3)CCCC4)C2)C1 — ligand efficiency (KRAS C118A/G12C; SOS1-catalysed nucleotide exchange, AlphaScreen): 0.24
C[C@H]1CN(CC(F)(F)F)CCN1c1nccc(-c2noc([C@@]3(C)CCCc4sc(N)c(C#N)c43)n2)n1 — potency loss from trifluoroethyl (GTPase KRas, with SOS1 (KRAS, Homo sapiens, UniProt P01116, C118S/G12V); KRAS G12V-SOS1 binding, inhibitor, AlphaScreen; baseline: other N-substituted piperazines): > 100 fold
